Experimental data from different studies.
Lines come from different studies, so protocols differ. Values joined by “and” are separate records of one study, mostly repeats; a detail may differ. ± marks the error that the study gave.
MAPK8: Mitogen-activated protein kinase 8 (MAPK8, Homo sapiens, UniProt P45983)
Dipeptidyl peptidase 8: Dipeptidyl peptidase 8 (Homo sapiens, UniProt Q6V1X1)

Compound	target	test	test system	conditions	how to read	measurement	value
CCCCCCCCCCCCCCCC(=O)OCC(CSC[C@H](N)C(=O)N[C@@H](CO)C(=O)N[C@@H](CCCCN)C(=O)N[C@@H](CCCCN)C(=O)N[C@@H](CCCCN)C(=O)N[C@@H](CCCCN)C(=O)NCCCCCC(=O)N[C@@H](CCCCN)C(=O)N[C@@H](CC(C)C)C(=O)N[C@H](C(=O)N[C@@H](Cc1ccccc1)C(=O)N[C@@H](Cc1ccccc1)C(=O)N[C@@H](Cc1ccc2ccccc2c1)C(=O)O)C(C)C)OC(=O)CCCCCCCCCCCCCCC (stereo partly drawn)	Amyloid-beta precursor protein, fibrillar amyloid-beta (APP, Homo sapiens, UniProt P05067)	TEM		2.0 eq, 3 h, fibril 5, with: APP 20 µM		fibril diameter	52.5 nm
O=C1c2sc(-c3ccc(N4CCC(F)C4)nc3F)nc2CCN1c1cccnc1 (stereo not drawn)	TAR DNA-binding protein 43, aggregated (TARDBP, Homo sapiens, UniProt Q13148)	saturation autoradiography	human, FTLD-TDP type A brain sections	50 nM		specific binding	301 nM
O=C(CCCCCCS)Nc1ccccc1	Histone deacetylase 8 (HDAC8, Homo sapiens, UniProt Q9BY41)	ITC	triethanolamine buffer	concentration not given, pH 7.5		binding stoichiometry	0.8
[N-]=[N+]=N[C@]1(COP(=O)(O)OP(=O)(O)OP(=O)(O)O)O[C@@H](n2ccc(N)nc2=O)[C@@H](F)[C@@H]1O	Genome polyprotein, NS5B (Hepatitis C virus genotype 1b, UniProt Q9WMX2)	nucleotide incorporation, substrate				Vmax	0.72 fraction per time
CC(C=CC=C(C)C=CC1=C(C)CCCC1(C)C)=CC=O	Rhodopsin (RHO, Homo sapiens, UniProt P08100, P23H)	ER retention, immunostaining co-localization, item: opsin with calnexin	COS-7 transfected P23H	20.00 µM		Pearson correlation coefficient	0.58
CCCCCCCCCCCCC/C=C/C=O	REEP5 (Homo sapiens, UniProt Q00765)	competitive isoTOP-ABPP	Ramos soluble proteome	100 µM, 60 min, with: iodoacetamide probe	baseline: DMSO over compound-treated, higher = stronger cysteine blockade	isoTOP-ABPP competition ratio	1.6
COc1ccc(C(=O)c2c(C(=O)NCCCN(C)C)oc3ccc(Cl)cc3c2=O)cc1OC	Growth hormone secretagogue receptor type 1 (GHSR, Homo sapiens, UniProt Q92847)	Gαq activation, NanoBiT	HEK293S Gαq/11 knockout			Emax	118 ± 9.8%
C/C1=C\CC/C(C)=C/CC(C)(C)/C=C/C1	Transient receptor potential cation channel subfamily V member 1 (Trpv1, Rattus norvegicus, UniProt O35433)	inhibitor, outside-out patch clamp		100 µM, 5 min, with: pH 5.5 activation		remaining current fraction	0.07 ± 0.03
C=C1CC2(C(=O)OC)C=C(C(=O)OC(C)(C)C)C(=O)C1C2 (stereo not drawn)	MAPK8	D-peptide binding, inhibitor, FP peptide displacement		125 µM	lower is stronger displacement	fraction bound	0.333
C[C@@H]1C[C@H](Nc2ccccc2)c2cc(F)ccc2N1C(=O)c1ccc(Cl)cc1	Ecdysone receptor (Aedes albopictus, UniProt Q9U3Y4)	ligand binding, inhibitor	intact cells	with: [3H]ponasterone A	direction not given	pIC50 Z-score	0.49
COC(=O)[C@@]1(Cc2ccccc2)C=C(C(=O)OC(C)(C)C)C(=O)CC1	MAPK8	D-peptide binding, inhibitor, FP peptide displacement		1000 µM	lower is stronger displacement	fraction bound	-0.0646
CC(C)[C@@H]1NC(=O)[C@H](Cc2ccccc2)NC(=O)CSC[C@@H](C(N)=O)NC(=O)[C@H](CCC(=O)O)NC(=O)[C@H](CO)NC(=O)[C@H](Cc2c[nH]c3cccc(Cl)c23)NC(=O)[C@H](C2CCCCC2)NC(=O)[C@H](C(C)C)NC(=O)[C@H](Cc2ccc(O)cc2)NC(=O)[C@H](CC(=O)O)NC(=O)[C@H](Cc2c[nH]c3ccccc23)NC(=O)[C@H](Cc2ccc(N)nc2)NC(=O)[C@H](Cc2c[nH]c3ccc(Cl)cc23)NC(=O)[C@H](CCC(=O)O)NC1=O	Interleukin-1 receptor-like 2 (IL1RL2, Homo sapiens, UniProt Q9HB29)	reporter gene (SEAP), inhibitor, HEK-Blue IL-36R reporter	HEK-Blue IL-36R cells	0.0017 µM, 6 h, with: IL-36γ 10 ng/mL		remaining activity	98.8%
Cc1cnc2nc1Nc1cccc(c1)COC/C=C/COCc1cc(ccc1OCCN1CCOCC1)N2	Tyrosine-protein kinase ABL1 (ABL1, Homo sapiens, UniProt P00519, F317I)	binding		0.1 µM		remaining binding	99%
Cc1cc(C)cc(COc2cc3c(cc2OCc2cc(C)cc(C)c2)C2CC(O)(Cc4cn(CCOCCOCCNC(=O)CCCCC5SCC6NC(=O)NC65)nn4)CC(C)N2CC3)c1 (stereo not drawn)	Importin subunit beta-1 (KPNB1, Homo sapiens, UniProt Q14974)	biotinylated probe pull-down		10 µM probe	baseline: heavy over light	SILAC ratio	3.2
CC[C@H](C)[C@@H]1NC(=O)[C@H](Cc2c[nH]c3ccccc23)NC(=O)[C@H](Cc2ccccc2)N(C)C(=O)[C@H](C(C)C)NC(=O)[C@H](CC(C)C)NC(=O)[C@H](Cc2ccccc2)NC(=O)CSC[C@@H](C(=O)N[C@@H](CC(N)=O)C(N)=O)NC(=O)[C@H](Cc2ccccc2)NC1=O	Stimulator of interferon genes protein (STING1, Homo sapiens, UniProt Q86WV6, H232R)	thermal stability, DSF		200 µM		ΔTm	3.23 °C
O=C(c1ccncc1)N1CCN(CC(OCc2ccc3ccccc3c2)c2ccc(Cl)cc2Cl)CC1 (stereo not drawn)	Serine/threonine-protein kinase ULK1 (ULK1, Homo sapiens, UniProt O75385)	enzyme activity, inhibitor, ADP detection		0.1 µM		activity vs control	112%
CCC1(CC)C(=O)N(c2cc(C(=O)OC)cc(C(=O)N3CCN(Cc4ccc(Br)cc4)CC3)c2)C1=O	Dipeptidyl peptidase 8	enzyme activity, inhibitor		5 µM		activity vs control	26%
COc1cc(Nc2nccc(-c3cnn4nc(OC)ccc34)n2)cc(C(F)(F)F)c1	Tyrosine-protein kinase ABL1, non-phosphorylated (ABL1, Homo sapiens, UniProt P00519, Q252H)	binding		1 µM		remaining binding	93%
COc1ccccc1-c1ccncc1C(=O)Nc1nnc(OCc2ccc(Cl)cc2)s1	Bifunctional 3'-5' exonuclease/ATP-dependent helicase WRN, residues 500-946 (WRN, Homo sapiens, UniProt Q14191)	ATPase activity, ADP-Glo		0.95 µM	baseline: 0 µM cpd	remaining activity	98%
CC(C)Oc1cc(Cl)ccc1CNc1cc(-c2ccccc2)nc2ncnn12	G-protein coupled receptor 3 (GPR3, Homo sapiens, UniProt P46089, V155A)	cAMP level, cAMP GloSensor		1 nM	higher = more cAMP	cAMP luminescence	32300 a.u. and 26900 a.u. and 24100 a.u. and 30300 a.u.
N=C(N)NCCS(=O)(=O)O	Sodium- and chloride-dependent taurine transporter (SLC6A6, Homo sapiens, UniProt P31641, G62A)	binding, microscale thermophoresis		7.81 µM, room temperature, with: 50 nM labelled protein	higher = more binding	normalised MST signal	-0.00861
CCCC1(CCC)C(=O)N(c2cccc(CN3CCN(Cc4ccc(Br)cc4)CC3)c2)C1=O	Dipeptidyl peptidase 8	enzyme activity, inhibitor		5 µM		activity vs control	62%
CCCCCC=CC=C1C(=O)C=CC1CC=CCCCC(=O)O (stereo not drawn)	Ribonucleoside-diphosphate reductase large subunit (Homo sapiens, UniProt P23921)	competitive isoTOP-ABPP, item: RRM1 cysteine peptide	Ramos soluble proteome	100 µM, with: iodoacetamide probe	baseline: DMSO over compound-treated, higher = stronger cysteine blockade	isoTOP-ABPP competition ratio	3
C=CC(=O)N1CCCC(n2c(=O)c3ncccc3n(Cc3ccc(Oc4ccccc4)cc3)c2=O)C1 (stereo not drawn)	Elongin-C (Homo sapiens, UniProt Q15369)	thermal proteome profiling, item: ELOC		10 µM, destabilized proteins, unit not given	baseline: vehicle	melting temperature shift	-6.35
CCCCCCCC/C=C\CCCCCCCC(=O)OCC(O)COP(=O)(O)O (stereo not drawn)	Lysophosphatidic acid receptor 1 (LPAR1, Homo sapiens, UniProt Q92633, W271F)	Gi activation, agonist, NanoBiT G-protein dissociation	HEK293T	W271F mutant, unit not given	baseline: wild type	change in Emax	0.952
O=[N+]([O-])c1cc(Br)cc([N+](=O)[O-])c1NS(=O)(=O)c1ccc(Br)cc1	PYL10, with HAB1 (Arabidopsis thaliana, UniProt Q8H1R0)	antagonist		200 µM, with: ABA 5 µM	higher = more HAB1 activity	HAB1 phosphatase activity	0.103 a.u. and 0.101 a.u. and 0.102 a.u.
CN(C)c1ccc(-n2cc(COC(=O)[C@]3(C)C=C(C(=O)OC(C)(C)C)C(=O)CC3)nn2)cc1	MAPK8	D-peptide binding, inhibitor, FP peptide displacement		200 µM	lower is stronger displacement	fraction bound	0.149

Some of these lines once more:
Compound	target	test	test system	conditions	how to read	measurement	value
CCCCCCCCCCCCCCCC(=O)OCC(CSC[C@H](N)C(=O)N[C@@H](CO)C(=O)N[C@@H](CCCCN)C(=O)N[C@@H](CCCCN)C(=O)N[C@@H](CCCCN)C(=O)N[C@@H](CCCCN)C(=O)NCCCCCC(=O)N[C@@H](CCCCN)C(=O)N[C@@H](CC(C)C)C(=O)N[C@H](C(=O)N[C@@H](Cc1ccccc1)C(=O)N[C@@H](Cc1ccccc1)C(=O)N[C@@H](Cc1ccc2ccccc2c1)C(=O)O)C(C)C)OC(=O)CCCCCCCCCCCCCCC (stereo partly drawn)	Amyloid-beta precursor protein, fibrillar amyloid-beta (APP, Homo sapiens, UniProt P05067)	TEM		2.0 eq, 3 h, fibril 5, with: APP 20 µM		fibril diameter	52.5 nm
O=C1c2sc(-c3ccc(N4CCC(F)C4)nc3F)nc2CCN1c1cccnc1 (stereo not drawn)	TAR DNA-binding protein 43, aggregated (TARDBP, Homo sapiens, UniProt Q13148)	saturation autoradiography	human, FTLD-TDP type A brain sections	50 nM		specific binding	301 nM
O=C(CCCCCCS)Nc1ccccc1	Histone deacetylase 8 (HDAC8, Homo sapiens, UniProt Q9BY41)	ITC	triethanolamine buffer	concentration not given, pH 7.5		binding stoichiometry	0.8
